Experimental data from different studies.
Every numbered part comes from another study and shows a few of its results, in no order.

Sample 1
Target: RNA binding protein fox-1 homolog 2, RRM domain, GST-SBP tag (RBFOX2, Homo sapiens, UniProt O43251-10, residues 100-194)
Method: RNA Bind-n-Seq
Molecule type: RNA
Matrix: in vitro
Tested at: 365 nM
Notes: natural RNA segment, single round, ends assumed
Baseline: no-protein control
Reading: higher = stronger binding
Residues (chain): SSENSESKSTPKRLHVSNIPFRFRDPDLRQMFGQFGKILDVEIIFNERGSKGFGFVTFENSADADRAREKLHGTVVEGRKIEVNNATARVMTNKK
Oligonucleotide	RBNS enrichment (R)
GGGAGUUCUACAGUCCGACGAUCUGAGUCUGCAGGUCCAGUGUGGUUUAGGUCAGUCAGGGGCCAGCUGGCCUCUGACUGCAUUGCUUUAGGUCGUAUUCAAACUCUCUUAAACAUUGUGCCAAGAAACGAUUUGGAAUUCUCGGGUGCCAA	0.35
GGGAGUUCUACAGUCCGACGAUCAUUAUAGGUGCCCAGGCUGAGGUGAAGAGGCCUGGGGGCCCUGCCUUCCGGGCGCUCCUGGACCCUGGGGCAAACCUGUGACCCUUUUCUACUGGAAUAGAAAUGAGUUUUGGAAUUCUCGGGUGCCAA	0.384
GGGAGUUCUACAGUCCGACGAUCUUAUGUAAAAUGCUCAAUUAUAUAUUUUUGUUGAGUUUUUUAAUUAAAGACUUGUAAAAAAAAAAAACAGUAUAUUGCAAAUGUUUCUUAAAUAGGUUAGGUGGAGUACUUGGAAUUCUCGGGUGCCAA	0.854
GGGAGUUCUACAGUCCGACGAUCCAAAACCUUAAAAAAGAGAGAGAAAAAUAAACAAUCUUUGAAGAAUUUCUGAAACUGUUUACAAGGAAUUUUGAAAAACAGGGAUGUUUAAAUGAUGCCGGCUCUGUUUUUGGAAUUCUCGGGUGCCAA	0.709
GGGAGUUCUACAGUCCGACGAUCAGGCACAACAGUCAUUACAAAUCUUUAUUCUGUUCACUUUGAUGAAAAGUACUGGAAAGAUCCAGACAUGUUCUAUCCUGAGCGAUUUCUGGACAGCAAUGGAUAUUUUAUGGAAUUCUCGGGUGCCAA	0.376
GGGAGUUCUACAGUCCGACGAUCGUUGCGGACAGCCCGCUCCACUCUCCACCCUGUACUCCAUAAAUAAAGCUACGUGCUUCUGCCCUGACGCACCAGCGCUCAUUUGUUUCUUGGUCUUUUUGAAGUUUCACUGGAAUUCUCGGGUGCCAA	0.917
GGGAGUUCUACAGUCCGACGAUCCCGGAUUGGAGCCUUGGCUGCCGUUGAGAAGCACUUACCUGCCAAGAUUUGCUGAUGCCAGACGAUCUACCCCAGCAUGUGAAUGCAUAAUGGACAUUGCCAUCUCUGCCUGGAAUUCUCGGGUGCCAA	1.27
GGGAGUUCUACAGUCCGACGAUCCCUGUGACUUCCACCUUGGGUUUAGUAAUGGGAGCUUGAGAUUGGAGAGCUGAGUCCUCUGUGGGUUCUGUAUUUAUCCAUUUGGCUUGAAGCUUUGUUUAUAUAUCGGCUGGAAUUCUCGGGUGCCAA	0.734
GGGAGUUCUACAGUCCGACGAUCGCCUUUGGUGUUUGGGGUUUCCUGAAGUGGGAGGAGUGUUGAGUAAGUUGGUCUUUCCCGGUGCUAUACUUGCCUCCUCUCCACGGAAGAAUUGUUCAGGAGAUGCGCUUUGGAAUUCUCGGGUGCCAA	0.485
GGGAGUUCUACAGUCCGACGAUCCAUUUUAGAAUAACAAGAACACCAAGAAUUACCCCUAAAACAGAGACCCUGUAUUUAAUCUACUUUGAUCAGAGAAGUAGAAUUUAUAACAGGUUAGCUAAAAUUGGGAGUGGAAUUCUCGGGUGCCAA	0.481
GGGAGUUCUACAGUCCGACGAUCGUCUGGCUUUGAAAGAUUUCAUUGUUGGUAGAAAUAACAGGUUGAGAAAGAGGGAGUUAGCAUCACCUAAAACCUGCACGUGAACAAGGGUUGACAUGAUACACUAUGGCUGGAAUUCUCGGGUGCCAA	1.33
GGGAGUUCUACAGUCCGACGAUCCAAUGUACAAAUCAAUGUUUUGAAAAUAAUGAUCUCAGACUUUCUAAGUUAAAUUUUAAACAAUUUGAUUGUUUGCCAUAUUGGGUGGGGUUACUCUUAGAAUCGCAUGCUGGAAUUCUCGGGUGCCAA	40.1

Sample 2
Target: Centromere-binding protein 1, full length, His-tagged (CBF1, Saccharomyces cerevisiae, UniProt P17106, residues 1-351)
Chain of UniProt P17106 (whole entry, looked up): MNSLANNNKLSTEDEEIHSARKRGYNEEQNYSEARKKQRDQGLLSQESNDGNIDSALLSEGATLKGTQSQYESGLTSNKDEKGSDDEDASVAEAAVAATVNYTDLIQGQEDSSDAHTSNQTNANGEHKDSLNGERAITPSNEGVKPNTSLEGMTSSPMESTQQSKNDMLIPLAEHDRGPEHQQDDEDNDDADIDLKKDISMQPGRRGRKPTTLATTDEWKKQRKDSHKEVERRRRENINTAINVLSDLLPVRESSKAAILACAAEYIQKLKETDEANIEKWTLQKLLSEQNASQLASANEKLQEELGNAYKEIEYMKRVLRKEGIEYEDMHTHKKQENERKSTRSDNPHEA
Method: competition protein-binding microarray
Molecule type: double-stranded DNA, one strand shown
Matrix: in vitro
Tested at: 2 µM
Notes: whole 60-bp probe, lowest competitor level
Together with: Pho4 competitor, 0.05 µM
Reading: higher = stronger binding
Oligonucleotide	fluorescence intensity [a.u.]
TGTATAAGGACTACCCACGTGAGACCGTTTCCAAACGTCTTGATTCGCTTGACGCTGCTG	910
TGCATTTGCTTATTGAACGTGAAGTGGAATTGGGGCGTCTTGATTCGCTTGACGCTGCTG	96.3
CCAAAGGGTCCCCATCACGTCTGGTCCGGGCTTTCCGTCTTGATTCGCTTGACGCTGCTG	60
AGAGATTTACGATCTAGCGTGGTTACCTAATAACAGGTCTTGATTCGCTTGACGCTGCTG	84.9
ATTTGGTTCGAGCGTCATGATTGCTAAGGAAGTTAAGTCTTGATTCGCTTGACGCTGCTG	53.2
CGTCCTAGTGATTGGGAAGTGGGTGCCATGAGGAAGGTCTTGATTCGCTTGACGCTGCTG	71.5
CGTCCTAGTGATTGCTGCGTGGGTGCCATGAGGAAGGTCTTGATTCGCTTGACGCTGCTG	84.1
CGGGGTTAAGTTTGTGATGTGGGTGGCTTGCAGCAGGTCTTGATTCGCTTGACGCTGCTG	84.6
TGAACGCCATTACTAATGCATTTAAAAACTGCTTTTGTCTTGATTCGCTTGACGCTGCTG	86
GTCTTGTCTCATTGACGAGTGGGTGTCCCCACTTCAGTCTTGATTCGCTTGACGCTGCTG	86.9
CTTCTGTAAATTTGTCACACAACTTGACGCGCCCCGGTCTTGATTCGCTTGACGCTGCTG	92
CGTCCTAGCGATTGATCAGTGGGTGCCATGAGGAAGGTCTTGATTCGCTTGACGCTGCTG	64.5
GGGTGCCGGTACTTCCACGGGCCTCCAGTCCAGGACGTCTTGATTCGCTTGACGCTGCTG	50.3
GTCTCTAACCATGATACCGTGACTCGACTACATCCGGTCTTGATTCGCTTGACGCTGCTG	242
AAGACAGATGGCCGACACGCACTTTCACAGTTTCGCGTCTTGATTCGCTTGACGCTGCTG	65.3
AAAGCGGTAATTTGTCACTTAACTTCACATATCTATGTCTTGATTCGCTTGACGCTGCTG	98.4
CTTTCCCGATCTTGCTAAGTGGGTGTAGCACATTTGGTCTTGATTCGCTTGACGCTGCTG	68.9
TGCATGGATATATTTGGCCCTGTATCAAGTTCAAACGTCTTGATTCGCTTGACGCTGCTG	116
GGACAACATGGACTCATCGTGATGGGACTGATATGAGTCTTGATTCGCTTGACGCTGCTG	77.8
CTTCTGTAAATTTGCCACGTGGGTGGACGCGCCCCGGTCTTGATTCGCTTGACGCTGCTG	971
TTGAATGTAGTTGATCGCGTGTCTGTTGGCCAAATCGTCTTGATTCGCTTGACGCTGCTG	97.6
CAGAGCTGAGCAGGGCACGTGGGTGCCCTCCAGGCTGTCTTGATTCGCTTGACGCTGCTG	880
CAGAACGCCGCCTTCCCCGTGCGATGCAGGGTGCTAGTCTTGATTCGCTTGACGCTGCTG	59.9
CCGACCTTGTTGAAGTGCATGACAATACCGTCGTCCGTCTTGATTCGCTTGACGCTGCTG	88.5
AAAGCGGTAATTTGCACGGTGGGTGCAGATATCTATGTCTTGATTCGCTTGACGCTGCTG	79.5

Sample 3
Target: Ras GTPase-activating protein-binding protein 1, RRM domain (G3BP1, Homo sapiens, UniProt Q13283)
Chain of UniProt Q13283 (whole entry, looked up): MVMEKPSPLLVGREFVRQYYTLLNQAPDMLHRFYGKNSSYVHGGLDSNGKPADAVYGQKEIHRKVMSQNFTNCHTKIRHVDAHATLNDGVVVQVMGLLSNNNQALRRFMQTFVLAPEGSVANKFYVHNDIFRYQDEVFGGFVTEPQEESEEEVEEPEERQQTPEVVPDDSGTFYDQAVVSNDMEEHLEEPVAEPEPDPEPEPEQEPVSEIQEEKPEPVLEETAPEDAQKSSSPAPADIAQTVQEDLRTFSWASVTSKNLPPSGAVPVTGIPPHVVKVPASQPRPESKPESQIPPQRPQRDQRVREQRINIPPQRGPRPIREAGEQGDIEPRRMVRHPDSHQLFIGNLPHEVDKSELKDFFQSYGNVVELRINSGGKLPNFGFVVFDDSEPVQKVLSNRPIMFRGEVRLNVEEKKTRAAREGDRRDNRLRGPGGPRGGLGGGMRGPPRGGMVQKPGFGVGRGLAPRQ
Method: RNA Bind-n-Seq
Molecule type: RNA
Matrix: in vitro
Tested at: 1 µM
Notes: whole 134-nt RNA, ends assumed
Together with: 150 mM KCl
Baseline: input library
Reading: higher = stronger binding
Oligonucleotide	log2 enrichment
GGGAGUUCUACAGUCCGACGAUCGAAAUCCACAGGAAAGUGAUGUCACAAAACUUCACCAACUGCCACACCAAGAUUCGCCAUGUUGAUGCUCAUGCCACGCUAAAUGAUGGUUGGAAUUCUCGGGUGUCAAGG	-0.0436
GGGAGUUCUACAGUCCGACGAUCGCAGGAAGUAAAAACAAAUGGAAAUGCUUCGGAUAGUGGCAGGGGUGGGGGUUGCUAAGGAAAGGGUGGGAUGGGAAUGGGUAAAGAGUUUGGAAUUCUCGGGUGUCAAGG	1.24
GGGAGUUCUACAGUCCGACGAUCGUCCUGUGCUACACAUCGUAUGUACCGAAUCGGGGAAAGGGGUUUUUGGGGAAAGGGGAAAGUAUUAUGUUACGCCGUUCGGAUCUGCACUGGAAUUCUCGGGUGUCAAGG	1.39
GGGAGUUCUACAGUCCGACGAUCCCUCAAGUCCUGUGCUACACAUCGUAUGUACCGAAUCGGAAAAAGGAGGUGGAAAGUAUUAUGUUACGCCGUUCGGAUCUGCACUUCCAGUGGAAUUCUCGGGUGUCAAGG	-0.0844
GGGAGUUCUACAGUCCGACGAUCGCAGGAAGUAAAAACAAAUGGAAAUGCUUUGGAUAGUGGCAGGGGUGGGGGUUGCUAAGGAAAGGGUGGGAUGGGAGUGGGUAAAGAGUUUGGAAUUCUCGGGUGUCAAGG	0.813
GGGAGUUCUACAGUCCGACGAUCAAGUCCUGUGCUACACAUCGUAUGUACCGAAUCGGGUUUUGGGGUUUUGGGUUUUGGAAAGUAUUAUGUUACGCCGUUCGGAUCUGCACUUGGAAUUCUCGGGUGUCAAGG	-0.148
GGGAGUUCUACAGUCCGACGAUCCCUCAAGUCCUGUGCUACACAUCGUAUGUACCGAAUCGGGGAGGGAGGGAGGAAAGUAUUAUGUUACGCCGUUCGGAUCUGCACUUCCAGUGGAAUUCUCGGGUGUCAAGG	0.345
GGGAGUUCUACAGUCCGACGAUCAAGUCCUGUGCUACACAUCGUAUGUACCGAAUCGGGAGGGAAAAAAAGGGAAAGGGAAAGUAUUAUGUUACGCCGUUCGGAUCUGCACUUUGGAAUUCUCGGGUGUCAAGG	0.686
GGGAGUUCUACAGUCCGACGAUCUCAAGUCCUGUGCUACACAUCGUAUGUACCGAAUCGGAAAGGUGGUUUUUUUGGAAAGUAUUAUGUUACGCCGUUCGGAUCUGCACUUCCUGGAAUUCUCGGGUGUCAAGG	-0.177
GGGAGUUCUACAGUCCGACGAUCUCAAGUCCUGUGCUACACAUCGUAUGUACCGAAUCGGGGCGGGGCGGGGCGGGGAAAGUAUUAUGUUACGCCGUUCGGAUCUGCACUUCCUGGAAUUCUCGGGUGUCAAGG	0.656

Sample 4
Target: Histone acetyltransferase KAT6A, winged helix 1, GST fusion (KAT6A, Homo sapiens, UniProt Q92794, residues 1-85)
Method: protein binding microarray
Molecule type: double-stranded DNA, one strand shown
Matrix: in vitro
Tested at: not given
Notes: 8-mer, flanks averaged, mean of 2 arrays, mostly near background
Baseline: not given
Reading: higher = stronger binding
Target sequence (chain): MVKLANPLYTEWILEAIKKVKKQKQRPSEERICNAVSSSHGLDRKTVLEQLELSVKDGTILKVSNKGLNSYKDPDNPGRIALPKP
Oligonucleotide	E-score
CGTACTTA	0.13
GAATCAAC	-0.0491
GATGGAGC	0.0329
CGTTGATA	0.0727
TATTGGGA	-0.168
CCAAAAGC	0.0529
CGATCCTA	0.00531
ACATAGGT	-0.195
GAGATGCA	-0.1
AGGGAACT	-0.173
GCACCACA	-0.0763
CCGCGTGA	0.323
CCAGAATA	-0.0968
ATGCAACA	-0.298
ACGTGCAG	-0.123
CGGATAGA	0.169
GACAACTC	-0.181
GCCTTGCA	-0.111
AACTCACC	-0.197
GCCTCGGA	0.167
CCCACGAC	-0.0914
ATCATTCA	-0.0663
AGAGTGAT	-0.215
ACACTGCT	-0.151
AGGTCAAA	-0.137

Some of these lines once more (sample 2):
Oligonucleotide	fluorescence intensity [a.u.]
CCGACCTTGTTGAAGTGCATGACAATACCGTCGTCCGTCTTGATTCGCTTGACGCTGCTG	88.5
TGCATTTGCTTATTGAACGTGAAGTGGAATTGGGGCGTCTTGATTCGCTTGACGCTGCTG	96.3
AGAGATTTACGATCTAGCGTGGTTACCTAATAACAGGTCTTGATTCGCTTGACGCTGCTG	84.9
GTCTCTAACCATGATACCGTGACTCGACTACATCCGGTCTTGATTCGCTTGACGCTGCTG	242
GGACAACATGGACTCATCGTGATGGGACTGATATGAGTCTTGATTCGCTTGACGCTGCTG	77.8
AAAGCGGTAATTTGCACGGTGGGTGCAGATATCTATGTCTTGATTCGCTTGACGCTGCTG	79.5
CTTTCCCGATCTTGCTAAGTGGGTGTAGCACATTTGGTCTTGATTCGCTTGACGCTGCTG	68.9
